Results of several laboratories.
A part holds a random share of what one study measured.

Study 1
Target: RNA binding protein fox-1 homolog 2, RRM domain, GST-SBP tag (RBFOX2, Homo sapiens, UniProt O43251-10, residues 100-194)
Method: RNA Bind-n-Seq
Molecule type: RNA
Medium: in vitro
Tested at: 365 nM
Setting: natural RNA segment, single round, ends assumed
Baseline: no-protein control
Direction: higher = stronger binding
Constant ends, left off below: GGGAGUUCUACAGUCCGACGAUC … UGGAAUUCUCGGGUGCCAA
Residues (chain): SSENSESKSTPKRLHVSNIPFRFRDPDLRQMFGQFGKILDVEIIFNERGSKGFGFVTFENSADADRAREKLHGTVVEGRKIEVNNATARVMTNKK
| Oligonucleotide | RBNS enrichment (R) |
| --- | --- |
| UUUGCAAUUUGUGAAACAGUGUAUUGUGUUUUGUAAAAUGAUGUCAUGAAAUGGUGGGUCCUUGGAAACCUCCUUUCCGUUCAGCUCUGCCUCUGUUCUUUCAACUCCUU | 0.675 |
| CAAAGGUGUGCUCUGAGCUUCUUCAUAUUUCACCUUCACCCUCACCUGUGUUCUCUUCCCUCUCUCCCAAUAAAAGGGCUCCCAUUAUAAAUGCCAUGUACUUCUCUUGG | 0.873 |
| AAUCCUCACUGCCAGCCCCUCUUAAACAGGUAGAGAGCUGUGAGCCCCAGCCCCACCUGACUCCAGCACACCUGGCGAGUAGUAGCUGUCAAUAAAUCUAUGGUAAACAG | 0.379 |
| UUUGCUUUUCUAGGUCAUUAACGUUUUUUAUUUAGUUUCUUUAGCCAAUAGUGGCUGAGUUUCGCACUUGAUUUUCAAUAUUUUAUAGUAAGAAAUGACAAACUGCUUUG | 0.466 |
| GUCUUUGUGGAUUAGGAUGGGGGUGACAUAAUUUUCUUGAGUUUAACAGGAGUGCUUUACCCAAGUCAGUCAUGGAUAUGAUAUCACUGCUCUUUAUUUAAAAGUAAACU | 0.694 |
| AGCAAUAUGUUUCCUUCUCUGUAACAGUGUCCUAACAGUGAAAAUCAGAGUUAUUUGUUAAUUUUUAAGGAAAUUAUAUACUUAAUAUGUAUUGAUUAAAAGAAACAUUU | 0.551 |
| AUUUUAGAUAUAUAUACUUUGUUUUGGAAUAUUUGGUUGUAUAAAAUGUAAUGAGUGAGCUAAUUGAUUUUUUAGACCAUAUUUGAAGAUGUGGAUGACUUACAAGAAAC | 0.745 |
| AGCUUGUUACGUGAAUUCAACAAGCUGUCUUCUUAACGGGAGCCCUCAUUCUGGUUUAUUUAUUAUGAACUUCCAAGUUAUUUAAAUGAAGAUUUCCUUCUGCAGUAUUU | 0.32 |
| UAUUAUGAAAGUUUUACACUUAGUAUUCAUGUUAACAUUGGGUGCAAUAACUUAGUAGUACUUGCUUAGUUAUAAAUAACUGGAUCUUUCUGCUGACAACUUAGGUUGUA | 0.267 |
| GGGUUUGCUCCCAGGAAAGGAGAGGAAGAGCUAUAUAUAUGUGCCGACAUGUGGCAGACACACAGUAAAUAAUGGCUGACCAGCAUGAGGGCAGUACUGUCAGAAAUUUC | 13 |
| UCCUGCGACUGCAGGCACUGGUCAUUUUCUCAUGUAGCUGUCUUUUCAGUUAUGGUAAACUCUUAAAGUUCAGAACACUCAACAGAUUCCUUCAGUGAUAUACUUGUUCG | 0.38 |
| GUGUCCCGGAGGAACAGGCUAAGCAAGGGGCCCAGGAAGUUGUCCAGAGGACAGGGGCUAAUGAGCUGCUCAGAGCUGCCCUGCCCCUGCUUCUGAACACUGCUUUCCAC | 0.396 |

Study 2
Target: Prothrombin, mature alpha-thrombin (F2, Homo sapiens, UniProt P00734)
Method: aptamer microarray, sandwich
Molecule type: DNA with 2'F-ANA
Medium: in vitro
Tested at: 200 nM
Setting: whole 15-mer aptamer, many near background
With: Cy3 exosite-II aptamer, 400 nM
Direction: higher = stronger binding
Oligonucleotide: GGTTGGTGTGGTTGG
| Modification | mean fluorescence intensity [a.u.] |
| --- | --- |
| 2'F-ANA at 2 4 5 7 9 10 15 | 47.4 |
| 2'F-ANA at 1 5 6 7 10 11 12 15 | 50.5 |
| 2'F-ANA at 1 2 4 5 6 7 9 10 12 14 | 46.7 |
| 2'F-ANA at 1 4 6 7 9 11 13 | 70.5 |
| 2'F-ANA at 1 2 4 7 8 12 13 | 295 |
| 2'F-ANA at 2 4 5 6 7 8 12 13 14 | 43.9 |
| 2'F-ANA at 2 3 4 6 7 8 9 10 12 13 14 | 154 |
| 2'F-ANA at 2 4 5 10 12 13 14 | 46.6 |
| 2'F-ANA at 3 5 10 13 14 15 | 56.6 |
| 2'F-ANA at 2 3 5 6 7 8 10 11 12 13 15 | 56.1 |
| 2'F-ANA at 1 7 9 12 13 15 | 285 |
| 2'F-ANA at 1 3 4 5 6 7 8 9 14 15 | 49.1 |
| 2'F-ANA at 5 6 7 11 12 13 | 119 |
| 2'F-ANA at 1 2 5 7 9 11 13 14 | 45.9 |
| 2'F-ANA at 1 2 4 5 6 7 9 10 11 12 | 51.7 |
| 2'F-ANA at 3 4 6 8 11 12 14 15 | 261 |
| 2'F-ANA at 3 4 5 10 13 14 15 | 47.1 |
| 2'F-ANA at 3 6 8 9 11 12 | 1160 |
| 2'F-ANA at 1 2 3 4 8 13 15 | 157 |
| 2'F-ANA at 1 4 8 11 13 14 | 51.5 |
| 2'F-ANA at 1 2 3 6 7 8 10 11 12 13 | 79.6 |
| 2'F-ANA at 1 2 7 8 11 12 13 | 303 |

Study 3
Target: Interferon regulatory factor 5, full length, phosphomimetic (IRF5, Homo sapiens, UniProt Q13568-2, residues 1-514, S451D/S453D/S456D/S462D)
Method: protein-binding microarray
Molecule type: double-stranded DNA, one strand shown
Medium: in vitro
Tested at: 940 nM top
Setting: 60-bp whole probe
With: salmon DNA 0.4 mg/ml
Baseline: random background probes
Direction: higher = stronger binding
Constant ends, left off below: GCCTAGCAC … GTCTTGATTCGCTTGACGCTGCTG
| Oligonucleotide | fitted relative affinity |
| --- | --- |
| GACGAACTGAGTATCAAGACGTGCTAG | -0.235 z-score |
| TTTCCTTTATGTACTCTCTACGTGCTA | 2.73 z-score |
| GACAGACTGGGGTATCGGGACGTGCTA | 0.176 z-score |
| TTAGGACGGGGGTTTCGGTTAGTGCTA | 11.9 z-score |
| GACGATTTCAGTCCCGAGACGTGCTAG | 0.396 z-score |
| GACGGTTCCGACTATCGGGACGTGCTA | 0.746 z-score |
| TGTTCTTTTCTGTTGTCTGTGTGCTAG | 1.81 z-score |
| TTAGATATAAGTATCGATTAGTGCTAG | 3.63 z-score |
| TGAGATTTCAGTATCGATTAGTGCTAG | 5.49 z-score |
| TCATTTCTAATATTCTGACTGTGCTAG | 0.507 z-score |
| GACGATCTCAGCCTCGAGACGTGCTAG | -0.334 z-score |
| AACGGTTTCGACACTGGGGACGTGCTA | 7.27 z-score |
| GACGATCTCAGTATCGAAACGTGCTAG | 2.86 z-score |
| GACGATTTCAGACTGGAGAAGTGCTAG | -0.207 z-score |
| TTAGATAGCGGGACTGGATTAGTGCTA | -0.439 z-score |
| TTAGGTACCCTACTGCTTTAGTGCTAG | -0.165 z-score |
| CTAGGTATCCTTATCCTTTAGTGCTAG | 0.285 z-score |
| GACGGTTCCCTTTTCCTGCCGTGCTAG | 0.701 z-score |
| TCAATATTCATTTTATTACTGTGCTAG | 0.757 z-score |
| GACGGACTGCTACAGCTGACGTGCTAG | -0.45 z-score |
| TCAGGTTTCGACTTTCGGTTAGTGCTA | 8.47 z-score |
| TTAGGTTTCGGTTTCGGCTAGTGCTAG | 16 z-score |
| TTAGATATCGGGTCTCGATTAGTGCTA | 0.991 z-score |
| GCTTTTTCCCCCCTCACGCAGTGCTAG | 0.734 z-score |

Single results of other studies
Organism: Saccharomyces cerevisiae
Read-out: binding
Method: competitive growth deep sequencing
Molecule type: peptide
Tested at: concentration not given
Direction: direction not given
| Molecule | test system | setting | growth enrichment score |
| --- | --- | --- | --- |
| PPVIIKYIIINRF | cyclin E1-Cln2 fusion strain | peptide library 2 | 0.355 |
| KRNLLNEFDRII | cyclin D3-Cln2 fusion strain | tiling library, Cln2 subtracted | -0.227 |
| ASPLKKLFTSTGL | cyclin D3-Cln2 fusion strain | peptide library 1 | -0.198 |
| GFGFLLFICKLTF | cyclin E1-Cln2 fusion strain | peptide library 2 | 1.23 |

Repeated from above (study 3):
| Oligonucleotide | fitted relative affinity |
| --- | --- |
| GACGATTTCAGTCCCGAGACGTGCTAG | 0.396 z-score |
| CTAGGTATCCTTATCCTTTAGTGCTAG | 0.285 z-score |
| TTTCCTTTATGTACTCTCTACGTGCTA | 2.73 z-score |
| GACGGTTCCGACTATCGGGACGTGCTA | 0.746 z-score |
| GACAGACTGGGGTATCGGGACGTGCTA | 0.176 z-score |
| TTAGATATCGGGTCTCGATTAGTGCTA | 0.991 z-score |
| GACGGACTGCTACAGCTGACGTGCTAG | -0.45 z-score |
| TTAGGACGGGGGTTTCGGTTAGTGCTA | 11.9 z-score |
| GACGGTTCCCTTTTCCTGCCGTGCTAG | 0.701 z-score |
